Literature values that unrelated publications cite.
Protocols differ between the studies behind these lines. ± gives the spread as reported.

SMILES	target or system	assay	test system	conditions	quantity	value
CNC(=O)CN(CCN(CCN(CC(=O)[O-])CC(=O)NC)CC(=O)[O-])CC(=O)[O-].[Gd+3]				0.1 mmol/kg	half-life	1.29 ± 0.26 h
CC(C)=CCC/C(C)=C/CNCCNC1C2CC3CC(C2)CC1C3 (stereo not drawn)	Mycobacterium tuberculosis cis-decaprenyl diphosphate synthase	enzyme activity, inhibitor			IC50	≥ 50000 nM
C=CC[C@@H]1/C=C(\C)C[C@H](C)C[C@H](OC)[C@H]2O[C@@](O)(C(=O)C(=O)N3CCCC[C@H]3C(=O)O[C@H](/C(C)=C/[C@@H]3CC[C@@H](O)[C@H](OC)C3)[C@H](C)[C@@H](O)CC1=O)[C@H](C)C[C@@H]2OC	Cryptosporidium parvum	high-throughput screen		concentration not given	activity	inactive
CO[C@H]1CC[C@H](CNc2ccc(S(=O)(=O)NC(=O)c3ccc(N4CCN(CC5=C(c6ccc(Cl)cc6)CC(C)(C)CC5)CC4)cc3Oc3cnc4[nH]ccc4c3)cc2[N+](=O)[O-])CC1	BCL2	biochemical			IC50	1.4 nM
CN1CC(=O)N2[C@H](c3ccc4c(c3)OCO4)c3[nH]c4ccccc4c3C[C@@H]2C1=O			rat	oral, 1 mg/kg	Tmax	0.625 ± 0.25 h
O=C1CN(/N=C/c2ccc(-c3ccc([N+](=O)[O-])cc3)o2)C(O)=N1	Cryptosporidium parvum	high-throughput screen		concentration not given	activity	inactive
C[C@@H]1CCO[C@H]2Cn3cc(C(=O)NCc4ccc(F)cc4F)c(=O)c(O)c3C(=O)N12			human		therapeutic serum level	3 to 10 µM
COc1ccc2c(O[C@@H]3C[C@H]4C(=O)N[C@]5(C(=O)O)CC5/C=C\CCCCC[C@H](NC(=O)OC5CCCC5)C(=O)N4C3)cc(-c3csc(NC(=O)C(C)C)n3)nc2c1C (stereo partly drawn)	HCV NS3	biochemical			IC50	6.7 nM
CNC[C@H](O)[C@@H](O)[C@H](O)[C@H](O)CO.CNC[C@H](O)[C@@H](O)[C@H](O)[C@H](O)CO.O=C([O-])CN(CCN(CC(=O)[O-])CC(=O)O)CCN(CC(=O)O)C(COCc1ccccc1)C(=O)[O-].[Gd+3] (stereo not drawn)				0.1 mmol/kg	half-life	2.06 ± 0.91 h

Some of these lines once more:
SMILES	target or system	assay	test system	conditions	quantity	value
CC(C)=CCC/C(C)=C/CNCCNC1C2CC3CC(C2)CC1C3 (stereo not drawn)	Mycobacterium tuberculosis cis-decaprenyl diphosphate synthase	enzyme activity, inhibitor			IC50	≥ 50000 nM
